Measured values gathered from unrelated publications.
Compare with care: the assays were run in different laboratories.
Sample: plasma

CN1CCC[C@]1(C)/C=C/S(=O)(=O)NC(=O)Nc1c2c(cc3c1CCC3)CCC2 — Tmax after second dose, median (human; oral, 12.5 mg twice daily, day 14, multiple ascending dose): 1.5 h
CCc1cc(Nc2nc(-c3ccc(-n4cnc(C)c4)c(F)c3)cs2)c(C)cc1C — Tmax (human, both sexes; oral, 100 mg once daily, day 14, multiple dose, geometric mean): 4.3 h
Cn1c(=O)oc2ccc(-c3ccc(CC(C#N)NC(=O)C4CNCCCO4)c(F)c3)cc21 (stereo not drawn) — Tmax (human; 10 mg once daily, day 28, median): 1.5 h
CC[C@H](C)[C@H](NC(=O)[C@H](CC(C)C)NC(=O)[C@H](Cc1c[nH]c2ccccc12)NC(=O)[C@H](C)NC(=O)[C@@H](NC(=O)[C@H](Cc1ccccc1)NC(=O)[C@H](CC(=O)O)NC(=O)[C@H](CCCNC(=N)N)NC(=O)[C@H](C)NC(=O)[C@H](C)NC(=O)[C@H](CC(C)C)NC(=O)[C@H](C)NC(=O)[C@H](CC(=O)O)NC(=O)[C@H](CC(C)C)NC(=O)[C@@H](NC(=O)[C@@H](NC(=O)[C@H](C)NC(=O)[C@H](CC(C)C)NC(=O)[C@H](CCC(=O)O)NC(=O)[C@H](CO)NC(=O)[C@H](CO)NC(=O)[C@H](Cc1ccccc1)NC(=O)[C@@H](NC(=O)CNC(=O)[C@H](CCC(=O)O)NC(=O)CNC(=O)[C@@H](N)Cc1c[nH]cn1)[C@@H](C)O)[C@@H](C)O)[C@@H](C)CC)[C@@H](C)CC)C(=O)N[C@@H](C)C(=O)N[C@H](C(=O)N[C@@H](CCCCN)C(=O)N[C@H](C(=O)N[C@H](C(=O)N[C@@H](CC(=O)O)C(=O)N[C@@H](CCCCN)C(=O)N[C@@H](CCCCN)C(=O)O)[C@@H](C)O)[C@@H](C)CC)[C@@H](C)O — tmax (healthy human subjects; subcutaneous, 5 mg once weekly, day 36 after 6 doses, steady state, median): 8 h
CCc1c2c(nc3ccc(O)cc13)-c1cc3c(c(=O)n1C2)COC(=O)[C@]3(O)CC — Tmax (human patients; intravenous, 75 mg/m^2 of parent drug): 1.28 h
CC[C@H](C)[C@H](NC(=O)[C@H](CC(C)C)NC(=O)[C@H](Cc1c[nH]c2ccccc12)NC(=O)[C@H](C)NC(=O)[C@@H](NC(=O)[C@H](Cc1ccccc1)NC(=O)[C@H](CC(=O)O)NC(=O)[C@H](CCCNC(=N)N)NC(=O)[C@H](C)NC(=O)[C@H](C)NC(=O)[C@H](CC(C)C)NC(=O)[C@H](C)NC(=O)[C@H](CC(=O)O)NC(=O)[C@H](CC(C)C)NC(=O)[C@@H](NC(=O)[C@@H](NC(=O)[C@H](C)NC(=O)[C@H](CC(C)C)NC(=O)[C@H](CCC(=O)O)NC(=O)[C@H](CO)NC(=O)[C@H](CO)NC(=O)[C@H](Cc1ccccc1)NC(=O)[C@@H](NC(=O)CNC(=O)[C@H](CCC(=O)O)NC(=O)CNC(=O)[C@@H](N)Cc1c[nH]cn1)[C@@H](C)O)[C@@H](C)O)[C@@H](C)CC)[C@@H](C)CC)C(=O)N[C@@H](C)C(=O)N[C@H](C(=O)N[C@@H](CCCCN)C(=O)N[C@H](C(=O)N[C@H](C(=O)N[C@@H](CC(=O)O)C(=O)N[C@@H](CCCCN)C(=O)O)[C@@H](C)O)[C@@H](C)CC)[C@@H](C)O — tmax (immunoaffinity LC-MS/MS; healthy human subjects; intravenous infusion, 1 mg single dose, infused over 15 min): 1.5 h
Cc1c(Cl)c(C)[n+]([O-])c(Cl)c1-c1no[14c](-c2cc(O)c(O)c([N+](=O)[O-])c2)n1 — tmax (measured: total radioactivity; human, male; oral, 100 mg): 2 h
CC[C@H](C)[C@H](NC(=O)[C@H](CC(C)C)NC(=O)[C@H](Cc1c[nH]c2ccccc12)NC(=O)[C@H](C)NC(=O)[C@@H](NC(=O)[C@H](Cc1ccccc1)NC(=O)[C@H](CC(=O)O)NC(=O)[C@H](CCCNC(=N)N)NC(=O)[C@H](C)NC(=O)[C@H](C)NC(=O)[C@H](CC(C)C)NC(=O)[C@H](C)NC(=O)[C@H](CC(=O)O)NC(=O)[C@H](CC(C)C)NC(=O)[C@@H](NC(=O)[C@@H](NC(=O)[C@H](C)NC(=O)[C@H](CC(C)C)NC(=O)[C@H](CCC(=O)O)NC(=O)[C@H](CO)NC(=O)[C@H](CO)NC(=O)[C@H](Cc1ccccc1)NC(=O)[C@@H](NC(=O)CNC(=O)[C@H](CCC(=O)O)NC(=O)CNC(=O)[C@@H](N)Cc1cnc[nH]1)[C@@H](C)O)[C@@H](C)O)[C@@H](C)CC)[C@@H](C)CC)C(=O)N[C@@H](C)C(=O)N[C@H](C(=O)N[C@@H](CCCCN)C(=O)N[C@H](C(=O)N[C@H](C(=O)N[C@@H](CC(=O)O)C(=O)N[C@@H](CCCCN)C(=O)N[C@@H](CCCCN)C(=O)N[C@@H](CCCCN)C(=O)N[C@@H](CCCCN)C(=O)N[C@@H](CCCCN)C(=O)N[C@@H](CCCCN)C(N)=O)[C@@H](C)O)[C@@H](C)CC)[C@@H](C)O — tmax (healthy humans; subcutaneous, 10 mg once weekly, 6 doses, day 36, median): 12.1 h
O=C(CCc1ccc(CNC(C(=O)OC2CCCC2)C2CCCCC2)cn1)NO (stereo not drawn) — Tmax (human; oral, 60 mg, single dose, median): 0.5 h

Some of these lines once more:
CC[C@H](C)[C@H](NC(=O)[C@H](CC(C)C)NC(=O)[C@H](Cc1c[nH]c2ccccc12)NC(=O)[C@H](C)NC(=O)[C@@H](NC(=O)[C@H](Cc1ccccc1)NC(=O)[C@H](CC(=O)O)NC(=O)[C@H](CCCNC(=N)N)NC(=O)[C@H](C)NC(=O)[C@H](C)NC(=O)[C@H](CC(C)C)NC(=O)[C@H](C)NC(=O)[C@H](CC(=O)O)NC(=O)[C@H](CC(C)C)NC(=O)[C@@H](NC(=O)[C@@H](NC(=O)[C@H](C)NC(=O)[C@H](CC(C)C)NC(=O)[C@H](CCC(=O)O)NC(=O)[C@H](CO)NC(=O)[C@H](CO)NC(=O)[C@H](Cc1ccccc1)NC(=O)[C@@H](NC(=O)CNC(=O)[C@H](CCC(=O)O)NC(=O)CNC(=O)[C@@H](N)Cc1cnc[nH]1)[C@@H](C)O)[C@@H](C)O)[C@@H](C)CC)[C@@H](C)CC)C(=O)N[C@@H](C)C(=O)N[C@H](C(=O)N[C@@H](CCCCN)C(=O)N[C@H](C(=O)N[C@H](C(=O)N[C@@H](CC(=O)O)C(=O)N[C@@H](CCCCN)C(=O)N[C@@H](CCCCN)C(=O)N[C@@H](CCCCN)C(=O)N[C@@H](CCCCN)C(=O)N[C@@H](CCCCN)C(=O)N[C@@H](CCCCN)C(N)=O)[C@@H](C)O)[C@@H](C)CC)[C@@H](C)O — tmax (healthy humans; subcutaneous, 10 mg once weekly, 6 doses, day 36, median): 12.1 h
